# Measurements from different studies.
# Protocols differ between the studies behind these lines. Numbers after ± are the reported error.
# Sequence of UniProt Q12866 (whole entry, looked up): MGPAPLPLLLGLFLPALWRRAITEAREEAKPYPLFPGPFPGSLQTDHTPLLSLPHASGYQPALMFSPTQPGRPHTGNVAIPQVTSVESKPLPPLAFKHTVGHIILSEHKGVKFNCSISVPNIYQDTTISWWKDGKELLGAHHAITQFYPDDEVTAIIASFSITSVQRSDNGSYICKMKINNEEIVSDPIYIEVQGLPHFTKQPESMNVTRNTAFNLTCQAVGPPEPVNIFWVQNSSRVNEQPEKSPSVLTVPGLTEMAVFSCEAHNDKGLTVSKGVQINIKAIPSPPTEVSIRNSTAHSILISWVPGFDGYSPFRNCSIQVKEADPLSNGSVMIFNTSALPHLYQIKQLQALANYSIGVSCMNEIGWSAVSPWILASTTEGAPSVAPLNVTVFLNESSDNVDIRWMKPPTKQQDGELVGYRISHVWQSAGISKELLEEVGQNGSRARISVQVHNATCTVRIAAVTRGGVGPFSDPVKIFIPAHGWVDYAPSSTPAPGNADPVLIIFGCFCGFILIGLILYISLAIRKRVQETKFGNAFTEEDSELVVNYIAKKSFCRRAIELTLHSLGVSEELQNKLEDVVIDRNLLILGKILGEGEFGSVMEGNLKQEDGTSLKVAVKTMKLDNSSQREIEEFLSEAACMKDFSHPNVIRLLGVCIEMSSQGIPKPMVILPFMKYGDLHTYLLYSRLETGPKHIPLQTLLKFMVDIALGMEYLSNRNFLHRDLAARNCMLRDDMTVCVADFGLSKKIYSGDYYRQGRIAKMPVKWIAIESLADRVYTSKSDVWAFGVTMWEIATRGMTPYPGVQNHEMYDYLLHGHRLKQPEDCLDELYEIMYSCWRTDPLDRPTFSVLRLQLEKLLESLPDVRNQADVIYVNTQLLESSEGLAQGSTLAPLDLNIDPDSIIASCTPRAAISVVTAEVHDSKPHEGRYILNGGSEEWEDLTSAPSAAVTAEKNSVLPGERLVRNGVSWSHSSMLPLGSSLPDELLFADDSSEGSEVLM
SMILES,tested on,test,system,conditions,how to read,endpoint,value
Cc1ccc2ccc(Cl)c(O)c2n1,RRCK low-efflux MDCK-II cells,,,"1.5 h, 37 °C, apical to basal",,Papp,9.85 ×10⁻⁶ cm/s
CC(C)C[C@@H]1NC(=O)[C@@H](CC(C)C)NC(=O)[C@H](CCN)NC(=O)[C@@H](NC(=O)[C@H](CCN)NC(=O)[C@@H](N)[C@@H](C)O)CCNC(=O)[C@H]([C@@H](C)O)NC(=O)[C@H](CCN)NC(=O)[C@H](CCN)NC1=O,ciPTEC overexpressing OAT-1,,,"24 h, 37 °C, serum-free medium",,TC50,> 1 mM
Nc1ncnc2c1ncn2[C@@H]1O[C@H](CSCc2ccc(Cl)cc2Cl)[C@@H](O)[C@H]1O,L2 rat cells,"cytotoxicity, crystal violet",,,,CC50,> 200 µM
Cc1ccc2cc(Br)cc(O)c2n1,RRCK low-efflux MDCK-II cells,,,"1.5 h, 37 °C, apical to basal",,Papp,0.15 ×10⁻⁶ cm/s
C[C@@H]1O[C@@H](O[C@@H]2[C@@H](O)[C@H](O)[C@@H](CO)O[C@H]2c2c(O)cc(O)c3c(=O)cc(-c4ccc(O)cc4)oc23)[C@H](O)[C@H](O)[C@H]1O,Caco-2 monolayer,transwell permeability,,"100 µg/mL, apical to basolateral, HBSS, DMSO 1%, added: verapamil 0.1 mg/mL",relative to: verapamil alone,Papp increase,31.3%
COC1CN([C@H]2CC[C@H]([C@@]3(C)Oc4c(Cl)cc(C(=O)NCc5c(SC)cc(C)[nH]c5=O)c(C)c4O3)CC2)C1,,"RNA-seq, measured: PURA mouse homolog","mouse, HT-1376 xenograft, whole blood",dose not given,relative to: vehicle,log2 fold change,0.513
CC[C@H]1OC(=O)[C@H](C)[C@@H](OC(=O)Cc2cccc([N+](=O)[O-])c2)[C@H](C)[C@@H](O[C@@H]2O[C@H](C)C[C@H](N(C)C)[C@H]2O)[C@](C)(OC)C[C@@H](C)C(=O)[C@H](C)[C@@H](O)[C@]1(C)O,HEK293,cell growth or viability,,,,CC50,> 32 µg/mL
CC(C)C1=CC2=CCC3C(C)(C(=O)OCCC[N+](C)(C)C)CCCC3(C)C2CC1 (stereo not drawn),NIH3T3,"cytotoxicity, LDH release",,5% FBS,,IC50,133 µg/mL
CCN(CC)CC#CCNc1ccnc2cc(Cl)ccc12,Salmonella typhimurium,mini-Ames test,TA100,"125.0 µg/well, with rat liver S9",,mean revertants,24 revertants/well
N[C@@H](CNC(=O)N[C@@H](CS)C(=O)NCC(=O)O)C(=O)O,RPMI-2650 air–liquid interface,,,concentration not given,,TEER after transport,91.8 ± 8 Ω·cm²
Cc1ccc2c([N+](=O)[O-])ccc(O)c2n1,RRCK low-efflux MDCK-II cells,,,"1.5 h, 37 °C, apical to basal",,Papp,3.86 ×10⁻⁶ cm/s
Cc1nc(=S)[nH]c(C)c1/N=N/c1nnc(S)[nH]1,Vero,"cell growth or viability, MTT",,72 h,,CC50,≥ 10 µg/mL
Cc1ccc(C)c(/C=C/C(=O)c2ccc(O)cc2)c1,U-118-MG,"cell growth, MTT",,72 h,,IC50,> 20 µM
COc1cc(/C=C2\CNC/C(=C\c3cc(Cl)c(O)c(OC)c3)C2=O)cc(Cl)c1O,L02,MTT,,"range over 3.75 to 60 µM, 24 and 48 h",,cytotoxicity,not toxic
COc1cc(C(=O)/C=C/c2ccc(OC(F)F)cc2)ccc1O,U-118-MG,"cell growth, MTT",,72 h,,IC50,15.1 ± 0.76 µM
Cc1cc(O)c2nc(C)ccc2c1,RRCK low-efflux MDCK-II cells,,,"1.5 h, 37 °C, apical to basal",,Papp,0.81 ×10⁻⁶ cm/s
CN1CCCNC(=O)c2cccc(c2)C(=O)NCCCN(C)CCCNc2cccc3c2C(=O)c2cccc(c2C3=O)NCCC1,HEK293,"cell growth or viability, CCK-8",,"0.5 µM, 48 h",,viability,82%
N=C(N)NCCC[C@@H]1NC(=O)[C@H](CCCNC(=N)N)NC(=O)[C@@H](C(c2ccccc2)c2ccccc2)NC(=O)[C@H](Cc2c[nH]c3ccccc23)NC(=O)[C@@H](C(c2ccccc2)c2ccccc2)NC(=O)[C@@H](CCCNC(=N)N)NC(=O)[C@@H](CCCNC(=N)N)NC1=O,human liver cells,MTS,,"200 µg/mL, 24 h",,viability,80 to 82%
Cc1cc(=O)c2c(O)c3c(O[C@@H]4O[C@H](CO)[C@@H](O)[C@H](O)[C@H]4O)cc(O)cc3cc2o1,HK-2 co-cultured with HepaRG,MTT,,"16.67 µM, 24 h",relative to: untreated control,cell viability,98.3 ± 14.1%
CCOC(=O)c1cn(CC(c2c[nH]c3cc(Br)ccc23)c2c[nH]c3cc(Br)ccc23)c(C)c1C(=O)OC,human primary fibroblasts,"viability, MTS",,24 h,,CC50,> 20 µM
Nc1ncc(-c2cc(-c3cnn(CC(F)(F)F)c3)ncc2F)nc1C(=O)NC1CNCC(F)C1 (stereo not drawn),RET,KINOMEscan,,1 µM,relative to: DMSO control,remaining binding,37%
O=C(OCc1cn(-c2cc3ccc(O)cc3oc2=O)nn1)c1ccccc1,J774,"cell growth or viability, ATP luminescence",,72 h,,CC50,> 80 µM
O=C(Nc1cc(-c2ccnc3[nH]ccc23)c(Cl)cn1)[C@H]1CCC[C@@H](NC(=O)C(F)(F)F)C1,MDCK-MDR1 cells,permeability,,"time not given, basolateral to apical",,recovery,105%
CNS(=O)(=O)Nc1nccc(Cc2c(C)c3ccc(Oc4ncccc4F)cc3oc2=O)c1F,OVK18,cell viability,,7 days,,IC50,0.0104 µM
O=C1NC2(CC2)COc2ncc(F)cc2[C@H]2COCCN2c2ccn3ncc1c3n2,CHL cells,chromosomal aberration test,,"75 µg/mL, 4 h, without S9 mix",,cells with chromosome gaps,0.7%
CC(C)OCCOCc1ccc(OCC(O)CN(N=O)C(C)C)cc1 (stereo not drawn),Salmonella typhimurium,Ames test,TA98,"158 µg/plate, 30 % hamster S9",relative to: solvent control,revertant fold increase,1 fold
C=CC(=O)Nc1cccc(Cn2ncc3cnc(Nc4cnn(CCOC)c4)nc32)c1,PKN2 human,"binding, KINOMEscan",,100 nM,lower = stronger binding,percent of control,42%
COC(=O)c1c2c(cc(O)c(=O)c1O)COC2=O,LX-2,"cell growth or viability, MTS",,,,CC50,104 µM
Cc1ccc2c(C#N)ccc(O)c2n1,RRCK low-efflux MDCK-II cells,,,"1.5 h, 37 °C, apical to basal",,Papp,2.36 ×10⁻⁶ cm/s
COC(=O)c1c(CCl)cc(O)c(=O)c(O)c1C(=O)OC,LX-2,"cell growth or viability, MTS",,,,CC50,> 100 µM
O=C1C2CC3CC1CC(C(=O)N1CCN(c4ccc([N+](=O)[O-])c5ncccc45)CC1)(C3)C2,Salmonella typhimurium,Ames test,TA98,"0.02 µg/well, with S9",relative to: vehicle,revertant fold increase,1.3
C=C1CC[C@H](OCCCNC(=O)CCOCCOCCOCCOCCOCCOCCOCCOCCOCCOCCOCCOCCOCCOCCOCCOCCOCCOCCOCCOCCOCCOCCOCCOCCOCCOCCOCCOCCOCCOCCOCCOCCOCCOCCOCCOCCNC(=O)CCN2C(=O)CC(SC[C@H](NC(=O)[C@H](Cc3ccccc3)NC(=O)[C@H](CC(N)=O)NC(=O)[C@H](Cc3c[nH]cn3)NC(=O)[C@@H](NC(=O)[C@H](CC(=O)O)NC(=O)[C@H](CCC(N)=O)NC(=O)[C@H](CC(C)C)NC(=O)[C@H](CCCCN)NC(=O)[C@H](CCCCN)NC(=O)[C@H](CCCNC(=N)N)NC(=O)[C@H](CC(C)C)NC(=O)[C@H](Cc3c[nH]c4ccccc34)NC(=O)[C@H](CCC(=O)O)NC(=O)[C@@H](NC(=O)[C@H](CCCNC(=N)N)NC(=O)[C@H](CCC(=O)O)NC(=O)[C@H](CCSC)NC(=O)[C@H](CO)NC(=O)[C@H](CC(N)=O)NC(=O)[C@H](CC(C)C)NC(=O)[C@H](Cc3c[nH]cn3)NC(=O)[C@H](CCCCN)NC(=O)CNC(=O)[C@H](CC(C)C)NC(=O)[C@H](CC(N)=O)NC(=O)[C@H](Cc3c[nH]cn3)NC(=O)[C@H](CCSC)NC(=O)[C@H](CC(C)C)NC(=O)[C@H](CCC(N)=O)NC(=O)[C@@H](NC(=O)[C@H](CCC(=O)O)NC(=O)[C@H](CO)NC(=O)[C@@H](NC(=O)[C@@H](N)CO)C(C)C)[C@@H](C)CC)C(C)C)C(C)C)C(=O)O)C2=O)C/C1=C/C=C1\CCC[C@]2(C)[C@@H]([C@H](C)CCCC(C)(C)O)CC[C@@H]12 (stereo partly drawn),,,"male Sprague-Dawley rat, plasma","subcutaneous, 30 µg/kg, single dose",,Tmax,25.2 min
Cc1cc(O)c(=O)c(O)cc1C(=O)c1ccccc1,LX-2,"cell growth or viability, MTS",,,,CC50,85 µM
Cc1ccc2cc([N+](=O)[O-])cc(O)c2n1,RRCK low-efflux MDCK-II cells,,,"1.5 h, 37 °C, apical to basal",,Papp,1.73 ×10⁻⁶ cm/s
CCCC[C@H](NC(=O)CCCCCCCNC(=O)CN1CCN(CC(=O)O)CCN(CC(=O)O)CC1)C(=O)N[C@H]1CC(=O)NCCCC[C@@H](C(N)=O)NC(=O)[C@H](Cc2c[nH]c3ccccc23)NC(=O)[C@H](CCCNC(=N)N)NC(=O)[C@@H](Cc2ccccc2)NC(=O)[C@H](Cc2c[nH]cn2)NC1=O [technetium-99m labelled],,,"C57 mouse, lung","intravenous, 0.037 MBq, 2 h",,tissue uptake,1.49 ± 0.88 %ID/g
C[C@]12CC[C@@H]3c4ccc(O)cc4CC[C@H]3[C@@H]1CC[C@@H]2O[C@@H]1O[C@H](C(=O)O)[C@@H](O)[C@H](O)[C@H]1O,HEK293-A empty vector,,,"1 µM, 2 min",,uptake,217 fmol/mg protein
Cc1ncsc1-c1ccc(C(C)NC(=O)C2CC(O)CN2C(=O)C(NC(=O)CCCCCCCCCCN2CCCC(Nc3ncc(Cl)c(Nc4ccccc4S(=O)(=O)C(C)C)n3)C2)C(C)(C)C)cc1 (stereo not drawn),22Rv1,"RNA-seq, measured: ZFHX2 mRNA",,concentration not given,relative to: DMSO,log2 fold change,-2.31
Cc1ccc2c(C)ccc(O)c2n1,RRCK low-efflux MDCK-II cells,,,"1.5 h, 37 °C, apical to basal",,Papp,0.55 ×10⁻⁶ cm/s
C=C(NC(=O)c1csc(-c2nc3c(cc2O)-c2nc(cs2)C(=O)NC(C(C)O)C(=O)NC(=C(C)OC)c2nc(cs2)C(=O)NC2c4nc(cs4)C(=O)NC(COC(=O)c4c5c6c(cccc6n4O)COC(=O)C(OC4CC(C)(O)C(N(C)C)C(C)O4)C2OC5)c2nc-3cs2)n1)C(N)=O (stereo not drawn),,,"male Sprague-Dawley rat, plasma","intravenous, 6 mg/kg, single dose, infusion",,Tmax,6 min
Cc1cccnc1-c1csc(C(=O)Nc2cc(Cl)cc(NS(C)(=O)=O)c2)c1,human PBMC,"cell growth or viability, ATP luminescence",,10 days,,CC50,> 10 µM
Cc1nn(-c2cccc(N)c2)c(=O)c2cnc(Nc3ccc(N4CCNCC4)cc3)nc12,"Tyrosine-protein kinase Mer (MERTK, Homo sapiens, UniProt Q12866)","enzyme activity, inhibitor",,,,IC50,> 10 µM
O=CCNCCOn1c(=O)n(OCCNCCO)c(=O)n(OCCNCCOn2c(=O)n(OCCNCCO)c(=O)n(OCCNCCO)c2=O)c1=O,HUVEC,"cell growth or viability, MTT",,"12.5 µg/mL, 24 h",,viability,88.6%
COC(=O)c1ccc(/C=C/C(=O)c2ccc(O)c(OC)c2)cc1,U-118-MG,"cell growth, MTT",,72 h,,IC50,17.7 ± 1.93 µM
Cc1ccc2cc(Cl)cc(O)c2n1,RRCK low-efflux MDCK-II cells,,,"1.5 h, 37 °C, apical to basal",,Papp,1.41 ×10⁻⁶ cm/s
CCC1(CC)CC(=O)N(C2c3cc(C(=O)NC4c5ccccc5CC4O)ccc3OC2(C)COC)C(=N)N1 (stereo not drawn),MDCK-II,,,,,Papp,3.9 ± 0.5 ×10⁻⁶ cm/s

# Excerpt of the above:
SMILES,tested on,test,system,conditions,how to read,endpoint,value
CCC1(CC)CC(=O)N(C2c3cc(C(=O)NC4c5ccccc5CC4O)ccc3OC2(C)COC)C(=N)N1 (stereo not drawn),MDCK-II,,,,,Papp,3.9 ± 0.5 ×10⁻⁶ cm/s
COC1CN([C@H]2CC[C@H]([C@@]3(C)Oc4c(Cl)cc(C(=O)NCc5c(SC)cc(C)[nH]c5=O)c(C)c4O3)CC2)C1,,"RNA-seq, measured: PURA mouse homolog","mouse, HT-1376 xenograft, whole blood",dose not given,relative to: vehicle,log2 fold change,0.513
COC(=O)c1c(CCl)cc(O)c(=O)c(O)c1C(=O)OC,LX-2,"cell growth or viability, MTS",,,,CC50,> 100 µM
Cc1nn(-c2cccc(N)c2)c(=O)c2cnc(Nc3ccc(N4CCNCC4)cc3)nc12,"Tyrosine-protein kinase Mer (MERTK, Homo sapiens, UniProt Q12866)","enzyme activity, inhibitor",,,,IC50,> 10 µM
CCCC[C@H](NC(=O)CCCCCCCNC(=O)CN1CCN(CC(=O)O)CCN(CC(=O)O)CC1)C(=O)N[C@H]1CC(=O)NCCCC[C@@H](C(N)=O)NC(=O)[C@H](Cc2c[nH]c3ccccc23)NC(=O)[C@H](CCCNC(=N)N)NC(=O)[C@@H](Cc2ccccc2)NC(=O)[C@H](Cc2c[nH]cn2)NC1=O [technetium-99m labelled],,,"C57 mouse, lung","intravenous, 0.037 MBq, 2 h",,tissue uptake,1.49 ± 0.88 %ID/g
